Measurements collected from several papers.
Each numbered part is a random draw from the data of one study; scales do not carry over between parts.

Study 1
Target: RNA binding protein fox-1 homolog 2, RRM domain, GST-SBP tag (RBFOX2, Homo sapiens, UniProt O43251-10, residues 100-194)
Technique: RNA Bind-n-Seq
Molecule type: RNA
Sample: in vitro
Concentration: 365 nM
Setting: natural RNA segment, single round, ends assumed
Reference: no-protein control
Reading: higher = stronger binding
All sequences stand within: GGGAGUUCUACAGUCCGACGAUC … UGGAAUUCUCGGGUGCCAA
Target sequence (chain): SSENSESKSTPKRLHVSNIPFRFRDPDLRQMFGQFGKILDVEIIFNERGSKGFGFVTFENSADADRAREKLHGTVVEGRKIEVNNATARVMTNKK
| Sequence | RBNS enrichment (R) |
| --- | --- |
| CCCUCCCUUACAGGGUGGUGUAUAGCCAGGGCUAUACAAAAAGGGUGGCUAGUGACCUUUUCUCUCUCUUCUCUCUCUCUUCUCUCUUCUCUCUUCCCUUGAUCUUCCUU | 0.562 |
| ACAUUUCUGGAAUGUGUGUACCCUGCUGGUGACUUUGCAGCCCCGCCUUGCCUGACCUCCCACCCUAGUGGCCACCGGGAAGGCUGAAGGGAGUGGACACCACAGGAAGA | 0.35 |
| UGGGCCUAGGAGAGGCUUUGGACCUGGGAGCCACACCUAGGAGCAAAGUCUCACCCCUUUGUCUACGUUGCUUCCCCAAACCAUGAGCAGAGGGACUUCGAUGCCAAACC | 0.32 |
| CCGGAGGCUCUGGGGGGAGGGCAGCCUUUCAGUCAGCCCCCAUGCCUGCUGGGCUCUGGGCAGCCCUGCAGUUCCCUCUCUGGCUCUUCCACUCUCUGUGGGGUCCUGCG | 0.514 |
| AGGUGCUUGAGAAAGUGUACACUGCAGAACUGCCCAUUCUCAUUACUGUGUCCUAUUUUAUUCAUGCCUGUGUGUUUUUCUUAAGUAUGAAUUCUAGAUACAGCUACUUA | 2.09 |
| GUAGGGAGGACAGACUGUCACUUGCUGUUACAGGCACAGGUGAUUAAAAUGCUAAAUAUUGCAAAUUUAAGCUUUGUCAGUAUAUGGAAAAGUUGAAGGGAAAAUACUGG | 0.459 |
| CCAUGAGGUUGAGGUUACCCUGGCUUAUGGAGCGACAGCCUGUCUCAGAGAAACAAGAGCACAAGUAAAUGAACACAAAUCCUUCCUUAGGACCACUGCACCACAGGCCU | 0.415 |
| UUUAAAAUUCCAGGCCGGGCGUGGUGGCUCACGACUGUAAUCCCAGAACUUUGGGAGGCCAAGGCAGGUGGAUCACUUGAGGUCAGGAGUUCGAGACUAGCCUGGCCAAC | 0.711 |
| UGAUGCCAAAAUAUUGCUUAUGUCUCUACAUGGUAUUGUAAUGAAUAUCUGCUUUAAUAUAGCUAUCAUUUCUUUUCCAAAAUUACUUCUCUCUAUCUGGAAUUUAAUUA | 0.412 |
| CAGAGGCUCCCAACCCAUGCGCUACCAAAUACGCCUGGGCAGCCGGGCGGGCCAGCGGGCACCAGGACUGGUCUCCUCUGCGCUCUGAUUUGUUGACUGAAACUGUAAGG | 0.343 |
| GAUUCUCAGGGAGCCCUCUGUGGCCUUUUGCUUUGCGUGCUGUUUCCCUUGUACCAGAGGGCGGCACCGUGGAAAUUCUGUUUUCCCUGUAGCAUAUUGUGUUGGAUUGC | 0.383 |
| CUUGAAGAAAGGCAGUGUCCCCGAGUCACACAGCACAGCAGGUAGCAUCAACUAGAGCUAGUUAAUGUGUGUUGUUUUGCUCUUGGGAUCGAGACUUCAGUUUCCAAUGU | 1.99 |

Study 2
Target: Sal-like protein 4, full length isoform B (SALL4, Homo sapiens, UniProt Q9UJQ4-2, residues 1-616)
Technique: universal PBM
Molecule type: double-stranded DNA, one strand shown
Sample: in vitro
Concentration: not given
Setting: 8-mer, flanks averaged, mean of replicates
Reading: higher = stronger binding
Target sequence (chain): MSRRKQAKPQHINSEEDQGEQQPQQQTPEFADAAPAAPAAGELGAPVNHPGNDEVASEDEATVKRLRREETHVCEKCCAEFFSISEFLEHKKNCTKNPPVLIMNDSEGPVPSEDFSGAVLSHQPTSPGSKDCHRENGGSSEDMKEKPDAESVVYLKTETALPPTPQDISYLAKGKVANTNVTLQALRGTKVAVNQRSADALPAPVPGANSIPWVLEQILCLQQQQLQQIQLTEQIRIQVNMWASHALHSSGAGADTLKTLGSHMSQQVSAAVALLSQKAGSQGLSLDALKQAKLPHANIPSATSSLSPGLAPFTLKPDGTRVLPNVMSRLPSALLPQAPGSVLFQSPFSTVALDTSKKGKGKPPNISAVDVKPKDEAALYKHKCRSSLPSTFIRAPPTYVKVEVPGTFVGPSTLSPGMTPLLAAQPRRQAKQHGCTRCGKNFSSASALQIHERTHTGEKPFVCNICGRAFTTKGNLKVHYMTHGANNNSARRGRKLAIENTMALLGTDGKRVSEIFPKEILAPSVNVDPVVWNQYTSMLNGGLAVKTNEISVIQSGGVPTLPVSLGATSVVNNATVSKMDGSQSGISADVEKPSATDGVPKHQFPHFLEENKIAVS
| Sequence | E-score |
| --- | --- |
| GACTACGA | -0.14 |
| AATATCCG | 0.2 |
| GTTGTAAA | 0.147 |
| ACGGGTCG | -0.156 |
| CCCTGAGG | -0.266 |
| AAAGTCGG | -0.0936 |
| CATGCCGA | 0.00108 |
| AGGTATTG | 0.128 |
| CAGCTGCA | -0.103 |
| CTGTCACC | -0.107 |
| AGAGGTTA | 0.206 |
| ATGCTAAA | 0.159 |
| CAATAGCA | 0.112 |
| CCAACATA | 0.178 |
| ACGCAGAA | -0.0633 |
| GAGTCGTA | 0.0358 |
| AGTTAACA | 0.152 |
| GGAGGTGA | -0.0719 |
| GCACGGGA | -0.224 |
| GGTCTTTA | 0.227 |
| AGACTTAC | 0.044 |
| AACAGAGG | -0.13 |
| ATGACCAT | 0.138 |
| AATTCCGC | -0.0488 |

Study 3
Target: Histone acetyltransferase KAT6A, winged helix 2, GST fusion (KAT6A, Homo sapiens, UniProt Q92794, residues 85-181)
Technique: protein binding microarray
Molecule type: double-stranded DNA, one strand shown
Sample: in vitro
Concentration: not given
Setting: 8-mer, flanks averaged, mean of 2 arrays, mostly near background
Reference: not given
Reading: higher = stronger binding
Construct (chain): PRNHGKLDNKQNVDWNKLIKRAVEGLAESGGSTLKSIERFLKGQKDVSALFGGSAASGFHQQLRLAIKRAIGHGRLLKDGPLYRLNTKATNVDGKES
| Sequence | E-score |
| --- | --- |
| AGTAACGG | 0.0195 |
| CTTACACA | -0.092 |
| TCGCTCCA | 0.0172 |
| CACTTTGA | -0.123 |
| AGCCTGTG | -0.13 |
| CAGTCTTA | -0.111 |
| CTCCCATC | -0.0475 |
| CGCCCATA | 0.105 |
| ACAAAAAA | 0.0886 |
| AGCCTGTA | -0.0665 |
| ACCGGAGC | 0.144 |
| GTACTCTA | -0.18 |
| CTACTAAA | 0.00359 |
| CAGCGCTA | 0.0681 |
| CCTCAGCG | -0.0281 |
| AACTTGAG | -0.173 |
| GCCACCCC | 0.0343 |
| ATTTCTCG | 0.182 |
| CTATCCAG | 0.0331 |
| GCGGCTTA | 0.0991 |
| CCTTTGAG | -0.041 |
| AGTTATAC | 0.0298 |
| CAAGGAAG | 0.0267 |
| AGAATACG | -0.0618 |

Study 4
Target: Hepatocyte nuclear factor 3-beta, forkhead domain (FOXA2, Homo sapiens, UniProt Q9Y261, residues 142-269)
Technique: protein-binding microarray
Molecule type: double-stranded DNA, one strand shown
Sample: in vitro
Concentration: not given
Setting: k-mer, scored over probes, only values ≥0.25
Reading: higher = stronger binding
Target sequence (chain): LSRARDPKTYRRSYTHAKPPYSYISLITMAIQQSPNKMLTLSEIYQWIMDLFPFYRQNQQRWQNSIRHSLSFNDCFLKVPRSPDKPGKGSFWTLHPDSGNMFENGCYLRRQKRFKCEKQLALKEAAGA
| Sequence | E-score |
| --- | --- |
| TATTAGAA | 0.284 |
| GTCACTAA | 0.266 |
| ACATAATA | 0.382 |
| ATACACAC | 0.3 |
| TAGTATCA | 0.253 |
| ATCAAACA | 0.341 |
| ATAACGCA | 0.264 |
| ATGGTATA | 0.326 |
| ATGATACA | 0.322 |
| ATTTTACA | 0.25 |
| AGATACAG | 0.266 |
| ACGTTGAT | 0.314 |
| ATTATTTG | 0.369 |
| CACACAAA | 0.34 |
| ACTACAAC | 0.279 |
| ACTAATAC | 0.273 |
| AATAGTAA | 0.288 |
| ATATTTTA | 0.26 |
| ACATACAG | 0.341 |
| ACCATATG | 0.307 |
| CTAATATA | 0.401 |
| AAATCGTT | 0.254 |
| TACAAAGA | 0.273 |
| ACATTAAG | 0.313 |
| GTAATAAC | 0.272 |

Study 5
Target: Interferon regulatory factor 7, full length, phosphomimetic (IRF7, Homo sapiens, UniProt Q92985, residues 1-503, S101K/S471D/S472D/S475D/S476D/S477D/S483D/S484D/S487D)
Technique: protein-binding microarray
Molecule type: double-stranded DNA, one strand shown
Sample: in vitro
Concentration: 250 nM
Setting: 60-bp whole probe
Added: salmon DNA 0.4 mg/ml
Reference: random background probes
Reading: higher = stronger binding
All sequences stand within: GCCTAGCAC … GTCTTGATTCGCTTGACGCTGCTG
Target sequence (chain): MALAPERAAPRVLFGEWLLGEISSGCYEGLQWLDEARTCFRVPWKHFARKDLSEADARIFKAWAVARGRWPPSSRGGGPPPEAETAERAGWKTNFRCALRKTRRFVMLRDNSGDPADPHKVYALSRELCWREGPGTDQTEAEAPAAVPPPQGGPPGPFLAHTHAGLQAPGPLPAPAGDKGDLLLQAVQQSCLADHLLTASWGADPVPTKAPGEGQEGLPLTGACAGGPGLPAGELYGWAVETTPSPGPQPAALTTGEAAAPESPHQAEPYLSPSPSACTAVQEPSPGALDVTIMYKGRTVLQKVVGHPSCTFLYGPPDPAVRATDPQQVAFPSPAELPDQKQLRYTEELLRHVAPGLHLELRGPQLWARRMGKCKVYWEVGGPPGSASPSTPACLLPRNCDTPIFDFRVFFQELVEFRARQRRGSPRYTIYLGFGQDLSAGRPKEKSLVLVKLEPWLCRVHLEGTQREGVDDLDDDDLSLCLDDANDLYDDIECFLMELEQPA
| Sequence | log fluorescence [z-score] |
| --- | --- |
| GACGATTTCAGGTCCGAGACGTGCTAG | 0.185 |
| CTAGAACTGAGTATCGATTAGTGCTAG | 0.846 |
| GTCACTCTCAGAATCTCTCAGTGCTAG | 0.454 |
| GACGGTAACGGGTATCGGGACGTGCTA | -0.48 |
| GACGAACCGGGGTTTCGAGACGTGCTA | 2.55 |
| GACTGTTTCGACTATCGGGACGTGCTA | 2.27 |
| GACGGGTTCGGTATCGGGACGTGCTAG | 1.46 |
| ATGCCTTTCGTCAAGAAGACGTGCTAG | 0.606 |
| GACGGTTTCGGACTGGCGACGTGCTAG | 3.85 |
| TTAGAATTGGGGTTTCGATTAGTGCTA | 6.16 |
| TCACTTTACTTTCTTTTACTGTGCTAG | 2.18 |
| TCAGGAGTGTTTCTCAGACTGTGCTAG | -0.642 |
| TTAGGTTTCGACTATCGGTTAGTGCTA | 5.33 |
| GTGGGGGGTGTGAGTGGGTGGTGCTAG | 4.26 |
| TTAGGTTTCGGACTGGCTTAGTGCTAG | 3.96 |
| GACGGTATCGGAACTGGGGACGTGCTA | 0.213 |
| GAAGGACTGGGGACTGGGGACGTGCTA | -0.816 |
| TCACATCTGCAAGATCCAACTGTGCTA | 0.0329 |
| TCAATTCTGCTTTGCAAACTGTGCTAG | 0.538 |
| TTAGGACTGCTACAGCTTTAGTGCTAG | -0.471 |
| TTAGGGTTCGGTATCGGTTAGTGCTAG | 2.55 |
| TGAGCACCCAGAGCCGCCTGGTGCTAG | -0.774 |
| GACGGTTTCGACTTTCGGGATGTGCTA | 10.6 |

Study 6
Cell line: yeast with cyclin A1-Cln2 chimera
Read-out: cell growth
Mode: binder
Technique: competitive growth deep sequencing
Molecule type: peptide
Concentration: concentration not given
Setting: peptide tiling library
Reading: direction not given
| Sequence | growth enrichment score |
| --- | --- |
| ATNSSHTDAHEILVSD | -0.404 |
| HRRRLLFACSPPPASQ | -0.7 |
| PPTFLSTGEIHAFLSS | 0.626 |
| AGSAKRRLFGEDPPKE | 1.58 |
| SPREGHMMDALYAQVK | 0.709 |
| NESHLDKEHDAVEVAD | 0.886 |
| YLYLLLTQSLWCRV | -0.304 |
| VSRNLRSSLKSSLHTL | -0.923 |
| RRRRLLFWDKETQI | 0.459 |
| NRLLKLFTRCLTPLVP | -1.37 |
| RTEALEQGGLPKKLIF | -1.72 |
| GPVKLEFDVSDGAT | -0.249 |

For quick reference, copied from above (study 3):
| Sequence | E-score |
| --- | --- |
| AGAATACG | -0.0618 |
| CAGTCTTA | -0.111 |
| CAGCGCTA | 0.0681 |
| ACCGGAGC | 0.144 |
| GCGGCTTA | 0.0991 |
| AACTTGAG | -0.173 |
| AGTAACGG | 0.0195 |
| CTATCCAG | 0.0331 |
| ATTTCTCG | 0.182 |
| AGCCTGTA | -0.0665 |
| AGTTATAC | 0.0298 |
